Assay results of several laboratories.
Lines come from different studies, so protocols differ. Values joined by “and” are separate records of one study, mostly repeats; a detail may differ. ± marks the error that the study gave.
P2RX4: P2X purinoceptor 4 (P2RX4, Homo sapiens, UniProt Q99571)
Chain of UniProt Q99571 (whole entry, looked up): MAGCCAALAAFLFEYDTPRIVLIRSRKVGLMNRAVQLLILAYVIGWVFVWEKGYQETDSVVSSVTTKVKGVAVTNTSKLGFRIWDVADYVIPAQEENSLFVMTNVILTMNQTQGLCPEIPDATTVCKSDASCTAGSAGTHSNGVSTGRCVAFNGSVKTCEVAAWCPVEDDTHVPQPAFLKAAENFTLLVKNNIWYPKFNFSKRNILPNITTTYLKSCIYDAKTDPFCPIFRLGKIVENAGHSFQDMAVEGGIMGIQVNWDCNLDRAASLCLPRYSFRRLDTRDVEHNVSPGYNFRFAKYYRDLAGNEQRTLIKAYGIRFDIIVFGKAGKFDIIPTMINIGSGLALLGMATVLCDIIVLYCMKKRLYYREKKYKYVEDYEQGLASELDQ
Kir3.1/Kir3.4: Kir3.1/Kir3.4 (Homo sapiens, UniProt P48544+P48549)
Chain of UniProt P48549 (whole entry, looked up): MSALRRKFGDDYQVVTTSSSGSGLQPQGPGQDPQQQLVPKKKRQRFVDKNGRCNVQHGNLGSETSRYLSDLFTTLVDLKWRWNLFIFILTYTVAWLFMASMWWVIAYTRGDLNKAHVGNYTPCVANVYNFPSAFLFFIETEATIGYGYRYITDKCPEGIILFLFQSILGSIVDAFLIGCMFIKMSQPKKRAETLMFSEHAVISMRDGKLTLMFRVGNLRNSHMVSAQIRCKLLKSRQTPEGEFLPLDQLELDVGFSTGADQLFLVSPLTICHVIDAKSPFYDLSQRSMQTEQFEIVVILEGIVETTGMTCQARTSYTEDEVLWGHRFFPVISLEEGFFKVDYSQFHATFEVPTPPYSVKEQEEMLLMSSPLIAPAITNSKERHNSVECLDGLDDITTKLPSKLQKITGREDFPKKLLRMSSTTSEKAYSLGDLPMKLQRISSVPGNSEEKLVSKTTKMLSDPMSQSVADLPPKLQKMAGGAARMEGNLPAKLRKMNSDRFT
Chain of UniProt P48544 (whole entry, looked up): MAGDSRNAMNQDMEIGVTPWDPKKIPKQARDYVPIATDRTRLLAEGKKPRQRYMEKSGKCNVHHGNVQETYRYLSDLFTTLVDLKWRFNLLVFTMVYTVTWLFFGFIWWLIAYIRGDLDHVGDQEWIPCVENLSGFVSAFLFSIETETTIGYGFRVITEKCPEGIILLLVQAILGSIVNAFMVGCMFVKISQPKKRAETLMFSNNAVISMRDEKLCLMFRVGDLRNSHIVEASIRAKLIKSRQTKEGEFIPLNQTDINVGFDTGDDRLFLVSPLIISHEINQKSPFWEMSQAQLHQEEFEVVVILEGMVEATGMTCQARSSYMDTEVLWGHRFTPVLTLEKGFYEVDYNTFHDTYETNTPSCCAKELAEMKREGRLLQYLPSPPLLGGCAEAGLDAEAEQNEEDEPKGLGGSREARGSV
pyrD: Dihydroorotate dehydrogenase (quinone) (pyrD, Acinetobacter baumannii, UniProt B7GZW7)
Chain of UniProt B7GZW7 (whole entry, looked up): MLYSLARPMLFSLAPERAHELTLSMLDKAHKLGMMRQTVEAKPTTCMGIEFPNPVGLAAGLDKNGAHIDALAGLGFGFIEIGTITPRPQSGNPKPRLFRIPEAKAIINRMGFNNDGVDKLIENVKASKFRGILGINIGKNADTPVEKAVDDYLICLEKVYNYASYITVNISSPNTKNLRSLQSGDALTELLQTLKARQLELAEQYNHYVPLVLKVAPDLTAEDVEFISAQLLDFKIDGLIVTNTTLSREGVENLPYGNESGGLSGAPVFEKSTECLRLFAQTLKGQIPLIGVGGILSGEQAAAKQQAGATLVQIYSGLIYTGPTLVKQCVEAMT
CDC28: Cyclin-dependent kinase 1 (CDC28, Candida albicans, UniProt P43063)
Chain of UniProt Q64663 (whole entry, unmodified, looked up): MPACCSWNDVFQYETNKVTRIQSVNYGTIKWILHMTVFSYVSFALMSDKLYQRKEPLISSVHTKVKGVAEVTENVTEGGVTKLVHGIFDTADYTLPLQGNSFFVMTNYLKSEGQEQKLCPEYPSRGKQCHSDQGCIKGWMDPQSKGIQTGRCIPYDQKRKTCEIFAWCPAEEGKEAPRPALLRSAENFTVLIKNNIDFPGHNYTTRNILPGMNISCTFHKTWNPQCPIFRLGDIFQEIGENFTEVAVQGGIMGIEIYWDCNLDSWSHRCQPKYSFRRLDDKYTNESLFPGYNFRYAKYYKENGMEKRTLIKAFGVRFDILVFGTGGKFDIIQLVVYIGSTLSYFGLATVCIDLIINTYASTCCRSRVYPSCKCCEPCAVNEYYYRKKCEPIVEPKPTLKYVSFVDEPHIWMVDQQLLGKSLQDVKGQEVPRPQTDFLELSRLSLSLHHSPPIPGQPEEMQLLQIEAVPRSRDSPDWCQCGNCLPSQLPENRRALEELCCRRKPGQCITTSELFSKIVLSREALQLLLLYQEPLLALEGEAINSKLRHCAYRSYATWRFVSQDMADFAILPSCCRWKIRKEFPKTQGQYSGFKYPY
Chain of UniProt P43063 (whole entry, looked up): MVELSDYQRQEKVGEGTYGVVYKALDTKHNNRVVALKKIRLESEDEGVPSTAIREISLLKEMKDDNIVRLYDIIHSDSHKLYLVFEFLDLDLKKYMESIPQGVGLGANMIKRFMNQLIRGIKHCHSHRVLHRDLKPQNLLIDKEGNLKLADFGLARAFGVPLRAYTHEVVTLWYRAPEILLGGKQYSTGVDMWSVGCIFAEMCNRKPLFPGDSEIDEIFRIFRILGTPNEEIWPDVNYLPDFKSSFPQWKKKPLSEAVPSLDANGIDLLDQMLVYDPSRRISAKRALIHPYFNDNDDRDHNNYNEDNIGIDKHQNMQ
Chain of UniProt P31641 (whole entry, unmodified, looked up): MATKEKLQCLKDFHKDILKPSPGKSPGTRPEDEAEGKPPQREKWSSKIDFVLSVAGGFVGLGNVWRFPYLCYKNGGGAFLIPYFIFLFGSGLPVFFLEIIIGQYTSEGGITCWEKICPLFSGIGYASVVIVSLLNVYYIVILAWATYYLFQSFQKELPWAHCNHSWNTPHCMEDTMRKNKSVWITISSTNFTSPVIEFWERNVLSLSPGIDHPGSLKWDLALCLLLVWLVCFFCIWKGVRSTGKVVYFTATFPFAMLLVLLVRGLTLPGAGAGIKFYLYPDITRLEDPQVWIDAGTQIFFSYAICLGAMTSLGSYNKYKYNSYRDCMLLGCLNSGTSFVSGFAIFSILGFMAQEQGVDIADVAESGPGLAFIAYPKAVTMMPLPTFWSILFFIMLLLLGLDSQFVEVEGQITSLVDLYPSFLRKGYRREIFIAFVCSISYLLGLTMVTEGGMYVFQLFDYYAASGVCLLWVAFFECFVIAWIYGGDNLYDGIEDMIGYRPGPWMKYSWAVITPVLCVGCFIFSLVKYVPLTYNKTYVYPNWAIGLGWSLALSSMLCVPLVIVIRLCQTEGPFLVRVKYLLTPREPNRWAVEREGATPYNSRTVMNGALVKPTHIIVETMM
Chain of UniProt P52826 (whole entry, looked up): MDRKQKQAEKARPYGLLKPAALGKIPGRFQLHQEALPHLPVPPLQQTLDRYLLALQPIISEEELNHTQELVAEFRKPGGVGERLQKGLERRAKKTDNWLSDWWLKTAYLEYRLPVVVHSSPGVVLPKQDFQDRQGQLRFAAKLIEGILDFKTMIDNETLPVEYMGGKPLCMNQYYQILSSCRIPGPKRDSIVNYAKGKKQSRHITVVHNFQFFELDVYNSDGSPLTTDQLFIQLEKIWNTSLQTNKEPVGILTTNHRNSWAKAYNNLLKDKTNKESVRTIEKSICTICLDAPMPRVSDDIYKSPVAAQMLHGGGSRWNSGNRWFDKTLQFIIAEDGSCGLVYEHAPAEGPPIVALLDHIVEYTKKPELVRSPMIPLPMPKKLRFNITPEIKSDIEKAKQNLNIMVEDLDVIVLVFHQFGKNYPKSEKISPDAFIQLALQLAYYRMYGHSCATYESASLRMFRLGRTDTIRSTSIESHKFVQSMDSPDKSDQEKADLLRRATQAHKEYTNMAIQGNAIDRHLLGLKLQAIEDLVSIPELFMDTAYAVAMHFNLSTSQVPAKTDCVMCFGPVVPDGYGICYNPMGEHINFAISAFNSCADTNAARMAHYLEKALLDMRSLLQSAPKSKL
Chain of UniProt Q99705 (whole entry, looked up): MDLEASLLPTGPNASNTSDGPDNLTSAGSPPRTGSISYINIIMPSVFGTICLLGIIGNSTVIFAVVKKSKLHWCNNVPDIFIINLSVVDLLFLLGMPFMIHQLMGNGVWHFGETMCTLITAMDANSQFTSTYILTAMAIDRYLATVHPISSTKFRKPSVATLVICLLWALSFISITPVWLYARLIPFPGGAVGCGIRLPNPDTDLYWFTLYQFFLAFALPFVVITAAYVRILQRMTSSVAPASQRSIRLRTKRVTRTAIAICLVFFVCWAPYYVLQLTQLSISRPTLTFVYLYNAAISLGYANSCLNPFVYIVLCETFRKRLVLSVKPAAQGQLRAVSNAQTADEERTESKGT
Chain of UniProt P51575 (whole entry, unmodified, looked up): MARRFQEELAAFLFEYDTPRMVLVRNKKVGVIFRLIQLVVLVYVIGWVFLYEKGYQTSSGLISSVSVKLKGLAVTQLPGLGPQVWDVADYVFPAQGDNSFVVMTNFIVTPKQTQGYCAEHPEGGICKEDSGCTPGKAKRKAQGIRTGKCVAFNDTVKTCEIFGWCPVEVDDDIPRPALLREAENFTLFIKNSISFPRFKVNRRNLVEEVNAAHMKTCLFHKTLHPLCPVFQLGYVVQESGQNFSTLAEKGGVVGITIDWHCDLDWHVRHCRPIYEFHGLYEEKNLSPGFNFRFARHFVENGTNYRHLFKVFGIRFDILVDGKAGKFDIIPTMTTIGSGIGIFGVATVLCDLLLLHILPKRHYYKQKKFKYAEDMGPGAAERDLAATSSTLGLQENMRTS
Chain of UniProt P02749 (whole entry, unmodified, looked up): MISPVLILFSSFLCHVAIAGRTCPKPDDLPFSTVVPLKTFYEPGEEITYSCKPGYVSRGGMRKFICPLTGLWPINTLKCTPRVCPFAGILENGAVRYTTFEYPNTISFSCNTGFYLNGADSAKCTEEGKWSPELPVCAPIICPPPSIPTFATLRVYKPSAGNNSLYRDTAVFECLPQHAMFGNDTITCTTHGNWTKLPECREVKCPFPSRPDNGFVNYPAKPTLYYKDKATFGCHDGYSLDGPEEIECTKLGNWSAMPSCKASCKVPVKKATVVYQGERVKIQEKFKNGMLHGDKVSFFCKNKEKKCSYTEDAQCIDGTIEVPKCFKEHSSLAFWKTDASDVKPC

SMILES | target | test | system | setting | scale | endpoint | result
CCN1CCC[C@H]1CNC(=O)c1c(O)c(Cl)cc(Cl)c1OC | NPBWR2 (Homo sapiens, UniProt P48146) | receptor activation, TANGO luminescence |  | concentration not given, unconfirmed screen | relative to: vehicle control | log2 fold change | 0.211
CC[C@H](C)[C@H](NC(=O)[C@@H](NC(=O)[C@@H]1CCCN1C(=O)[C@H](CO)NC(=O)[C@H](C)N)C(C)C)C(=O)N[C@@H](Cc1ccc(O)cc1)C(=O)N[C@@H](Cc1c[nH]cn1)C(=O)N[C@@H](CC(C)C)C(N)=O | Interleukin-17 receptor A (IL17RA, Homo sapiens, UniProt Q96F46) | binding, surface plasmon resonance |  |  |  | kon | 5.47e+06 M⁻¹ s⁻¹
COc1cc(F)cc2c(N3CCN4c5ccccc5NC(=O)C4C3)c(C#N)nnc12 (stereo not drawn) | Metabotropic glutamate receptor 7 (Grm7, Rattus norvegicus, UniProt P35400) | negative allosteric modulator | rat |  | relative to: L-AP4 max | efficacy | 16%
C=CC(=O)N1CCC(COCC(=O)N2CCN(c3nc(-c4cnc(N)nc4C(F)F)nc(N4CCOC[C@@H]4C)n3)CC2)CC1 | Mitogen-activated protein kinase kinase kinase 6 (MAP3K6, Homo sapiens, UniProt O95382) | KINOMEscan |  | 1 µM |  | remaining binding | 96%
O=C(O)C1=CC(=C(c2ccc(O)c(C(=O)O)c2)c2ccc(O)c(C(=O)O)c2)C=CC1=O | P2RX4 | patch clamp |  | 4 µM, unit not given | relative to: baseline | remaining current | 0.887 ± 0.027
CC[C@H](C)[C@@H]1NC(=O)[C@H](C)NC(=O)[C@H]([C@@H](C)CC)NC(=O)[C@H](CCC(N)=O)NC(=O)[C@H](C)NC(=O)[C@H](CCCNC(=N)N)NC(=O)[C@H](C(C)C)NC(=O)[C@H](CC(C)C)NC(=O)[C@H](CCC(=O)O)NC(=O)[C@H](CCCNC(=N)N)NC(=O)CNC(=O)[C@@H](NC(=O)[C@H](CC(C)C)NC(=O)[C@H](CCCCN)NC(=O)[C@@H](NC(=O)[C@@H](NC(=O)[C@H](CCC(=O)O)NC(=O)[C@H](CCC(=O)O)NC(=O)[C@H](CCSC)NC(=O)[C@H](Cc2c[nH]c3ccccc23)NC(=O)[C@H](CO)NC(=O)[C@@H](N)CC(=O)O)C(C)C)[C@@H](C)CC)CSSC[C@@H]2NC(=O)[C@@H](NC(=O)[C@H](CCCCN)NC(=O)[C@H](CC(N)=O)NC(=O)[C@H](C)NC(=O)[C@H](CC(C)C)NC(=O)[C@H](C)NC(=O)[C@H](CO)NC(=O)[C@H](Cc3ccc(O)cc3)NC(=O)[C@H](CC(C)C)NC(=O)[C@H](CCC(N)=O)NC(=O)c3ccc(-c4c5ccc(=[N+](C)C)cc-5oc5cc(N(C)C)ccc45)c(C(=O)[O-])c3)CSSC[C@H](NC(=O)CNC(=O)[C@H](C(C)C)NC(=O)[C@H](Cc3c[nH]cn3)NC2=O)C(=O)N[C@@H]([C@@H](C)O)C(=O)N[C@@H](CCCCN)C(=O)N[C@@H](CCCNC(=N)N)C(=O)N[C@@H](CO)C(=O)N[C@@H](CC(C)C)C(=O)N[C@@H](C)C(=O)N[C@@H](CCCNC(=N)N)C(=O)N[C@@H](Cc2ccccc2)C(=O)N[C@H](C(=O)O)CSSC[C@@H](C(=O)NCC(=O)N[C@@H](CCSC)C(=O)N[C@@H](CO)C(=O)N[C@H](C(=O)N[C@@H](Cc2c[nH]c3ccccc23)C(=O)N[C@@H](CO)C(=O)O)[C@@H](C)O)NC1=O | Relaxin receptor 1 (RXFP1, Homo sapiens, UniProt Q9HBX9, F76A/Y80A) | NanoBRET |  | concentration not given, infinite dilution |  | fast dissociation fraction | 63.1%
Nc1ncnc2c1ncn2[C@@H]1O[C@H](COP(=O)(O)CP(=O)(O)OP(=O)(O)O)[C@@H](O)[C@H]1O | P2X purinoceptor 1 (P2RX1, Homo sapiens, UniProt P51575, K136A) | calcium influx |  | 3.16 nM | relative to: ionomycin response | calcium influx | 0%
COC(=O)c1ccc(NC(=O)COc2cc(Cl)ccc2Cl)s1 | Kir3.1/Kir3.4 | activator, thallium flux | HEK293 | concentration not given |  | activity | inactive
Nc1nc2c(ncn2[C@@H]2O[C@H](COP(=O)(O)O)[C@@H](O)[C@H]2O)c(=O)[nH]1 | GUK1 (Homo sapiens, UniProt Q16774, T83A) | binding, ITC |  |  |  | ΔG | -5.44 kcal/mol
C[N+](C)(C)C[C@H](O)CC(=O)O | Carnitine O-acetyltransferase (CRAT, Columba livia, UniProt P52826) | stopped-flow global fit |  | pH 7.8, ambient, ordered bi-bi mechanism |  | Ki | 490 µM
CCCC[C@H](NC(=O)[C@H](C)c1c(C)[nH]c2ccc(O)cc12)c1ncc(-c2cc3ccccc3nc2OC)[nH]1 | Melanin-concentrating hormone receptor 1 (MCHR1, Homo sapiens, UniProt Q99705) |  |  |  |  | Hill coefficient | 1.1
O=C(COc1ccc(C(F)(F)F)cc1C(F)(F)F)Nc1cc(C2CC2)nn1CC(F)(F)F | Kir3.1/Kir3.4 | thallium flux, activator | HEK293 |  | relative to: standard compound | Emax | 58%
Cc1cc(Nc2ccc(S(F)(F)(F)(F)F)cc2)n2nc(C3CC3)nc2n1 | pyrD | enzyme activity, inhibitor, colorimetric HTS, refers to: DCIP reduction |  | 3 µM | direction not given | robust Z-score | 16.8
CCCCCCCCc1ccc([C@H]2CC[C@H]([N+](C)(C)CCC)CC2)cc1.[I-] | Sphingosine kinase 2 (SPHK2, Homo sapiens, UniProt Q9NRA0) | inhibitor, radiometric flash-plate | cell lysate | with: sphingosine 5 µM |  | Ki/Km ratio | 4.2
Cc1cc(NC2Cc3cccc(F)c3C2)n2nc(C(C)(F)F)nc2n1 (stereo not drawn) | pyrD | enzyme activity, inhibitor, colorimetric HTS, refers to: DCIP reduction |  | 3 µM | direction not given | robust Z-score | 19.7
[O-][S+]1CCCCS1 (stereo not drawn) | Superoxide dismutase [Cu-Zn] (SOD1, Homo sapiens, UniProt P00441, G94A) | LC-MS | brain homogenate | 100 µM, 1 h, 37 °C |  | SOD1 monomer fraction | 73%
NCCCS(=O)(=O)O | Sodium- and chloride-dependent taurine transporter (SLC6A6, Homo sapiens, UniProt P31641, Y138A) | binding, microscale thermophoresis |  | 43.2 nM, fitted curve | higher = more binding | fraction bound | 0.000391
CO[C@H]1O[C@H](COS(=O)(=O)O)[C@@H](O[C@@H]2O[C@@H](C(=O)O)[C@@H](O[C@H]3O[C@H](COS(=O)(=O)O)[C@@H](O[C@@H]4O[C@H](C(=O)O)[C@@H](O[C@H]5O[C@H](COS(=O)(=O)O)[C@@H](O)[C@H](O)[C@H]5NS(=O)(=O)O)[C@H](O)[C@H]4O)[C@H](OS(=O)(=O)O)[C@H]3NS(=O)(=O)O)[C@H](O)[C@H]2OS(=O)(=O)O)[C@H](O)[C@H]1NS(=O)(=O)O | Beta-2-glycoprotein 1, domain V (APOH, Homo sapiens, UniProt P02749, V266L) | isothermal titration calorimetry |  | 298 K, with: 150 mM NaCl |  | association constant | 26500 ± 5560 M⁻¹
N#Cc1ccn2c(-c3ccncc3)c(-c3ccc(F)cc3)nc2c1 | CDC28 | kinase binding, competitor, MIB/MS competition, refers to: CDC28 | Candida albicans cell lysate | 1 µM | relative to: DMSO | log2 fold change | -0.145
NC1=NC(=O)N([C@H]2C[C@H](O)[C@@H](CO)O2)CN1CCCCCN(CC[C@H](N)C(=O)O)C[C@H]1O[C@@H](n2cnc3c(N)ncnc32)[C@H](O)[C@@H]1O | DNA (cytosine-5)-methyltransferase 1 (DNMT1, Homo sapiens, UniProt P26358) | radiometric [3H]-SAM |  | concentration not given, with: SAM, poly(dI-dC) |  | inhibition type | inhibited
CC(C)C[C@H](N)C(=O)O | snf (Aquifex aeolicus, UniProt O67854, L400C) | scintillation proximity |  | 10 nM protein |  | Bmax | 5150 ± 75 cpm/pmol LeuT
CC1(C)CC[C@]2(C(=O)O)CC[C@]3(C)C(=CC[C@@H]4[C@@]5(C)C[C@@H](O)[C@H](OC(=O)/C=C/c6ccc(O)cc6)C(C)(C)[C@@H]5CC[C@]43C)[C@@H]2C1 (relative stereo) | Presenilin-1, N-terminal fragment (PSEN1, Homo sapiens, UniProt P49768) | S1′ subsite probe binding, competitor, refers to: PS1 labelled by JC-8 | HeLa membranes |  |  | photoaffinity labelling | decreased
NCCCCC(=O)O | Sodium- and chloride-dependent taurine transporter (SLC6A6, Homo sapiens, UniProt P31641, G62A) | binding, microscale thermophoresis |  | 3.91 µM, room temperature, with: 50 nM labelled protein | higher = more binding | normalised MST signal | 0.0167
CC/C=C(\C)C=O | Enoyl-ACP reductase (Thermus thermophilus, UniProt P83818) | substrate, biocatalytic transformation |  | pH 6.2, 30 °C, anaerobic, with: NADPH |  | conversion | 17%
C=CC(=O)N1CCN(c2nc(OC[C@@H]3CCCN3C)nc3c(F)c(-c4nc(N)cc(C)c4C(F)(F)F)c(Cl)cc23)[C@@H](C)C1 | GTPase KRas, GDP-bound (KRAS, Homo sapiens, UniProt P01116, A146T) | binding, surface plasmon resonance |  |  |  | association rate constant | 131000 ± 1500 M⁻¹ s⁻¹
O=C1S/C(=C\c2ccc(Cl)cc2)C(=O)N1Cc1nc2ccccc2s1 | Aldo-keto reductase family 1 member B1 (AKR1B1, Homo sapiens, UniProt P15121) | enzyme activity, inhibitor |  |  |  | log IC50 | 2.21 log nM
Oc1ccccc1-c1n[nH]cc1-c1ccnc2ccccc12 | CDC28 | kinase binding, MIB/MS competition | Candida albicans lysate | 10 µM | relative to: DMSO, negative = stronger binding | log2 fold change | 0.14
Nc1ncnc2c1ncn2[C@@H]1O[C@H](COP(=O)(O)OP(=O)(O)OP(=O)(O)O)[C@@H](O)[C@H]1O | P2X purinoceptor 7 (P2rx7, Rattus norvegicus, UniProt Q64663, I214A/Q143A/R125A) | ion current, agonist, two-electrode voltage clamp | Xenopus oocytes | 100 µM |  | normalized current | 0.123 and 0.175 and 0.144
CCCc1ccc(S(=O)(=O)Oc2ccccc2NC(=O)c2ccc3ncccc3c2)cc1 | P2RX4 | calcium mobilization | MCF7 stably transfected | 100 µM, with: ATP 100 µM |  | fluorescence increase | 84.6 ± 0.47%
CC1=NN(c2ccc(Cl)cc2)C(=O)C1=NNc1ccc(S(N)(=O)=O)cc1 | bovine α-glucosidase | enzyme activity, inhibitor, glucose oxidase |  | 200 µg/mL, with: maltose |  | inhibition | 42.1%

Excerpt of the above:
SMILES | target | test | system | setting | scale | endpoint | result
C[N+](C)(C)C[C@H](O)CC(=O)O | Carnitine O-acetyltransferase (CRAT, Columba livia, UniProt P52826) | stopped-flow global fit |  | pH 7.8, ambient, ordered bi-bi mechanism |  | Ki | 490 µM
O=C(O)C1=CC(=C(c2ccc(O)c(C(=O)O)c2)c2ccc(O)c(C(=O)O)c2)C=CC1=O | P2RX4 | patch clamp |  | 4 µM, unit not given | relative to: baseline | remaining current | 0.887 ± 0.027
C=CC(=O)N1CCN(c2nc(OC[C@@H]3CCCN3C)nc3c(F)c(-c4nc(N)cc(C)c4C(F)(F)F)c(Cl)cc23)[C@@H](C)C1 | GTPase KRas, GDP-bound (KRAS, Homo sapiens, UniProt P01116, A146T) | binding, surface plasmon resonance |  |  |  | association rate constant | 131000 ± 1500 M⁻¹ s⁻¹
Nc1ncnc2c1ncn2[C@@H]1O[C@H](COP(=O)(O)OP(=O)(O)OP(=O)(O)O)[C@@H](O)[C@H]1O | P2X purinoceptor 7 (P2rx7, Rattus norvegicus, UniProt Q64663, I214A/Q143A/R125A) | ion current, agonist, two-electrode voltage clamp | Xenopus oocytes | 100 µM |  | normalized current | 0.123 and 0.175 and 0.144
CC1=NN(c2ccc(Cl)cc2)C(=O)C1=NNc1ccc(S(N)(=O)=O)cc1 | bovine α-glucosidase | enzyme activity, inhibitor, glucose oxidase |  | 200 µg/mL, with: maltose |  | inhibition | 42.1%
